Results pooled from the literature.
Several values in a cell are separate wells, animals, samples, runs or records. ± gives the spread as reported.

CC1CCC2C(C)C(OC(=O)CCC(=O)OC3C(C)OC(n4cc(F)c(=O)[nH]c4=O)C3OC(=O)CCC(=O)OC3OC4OC5(C)CCC6C(C)CCC(C3C)C46OO5)OC3OC4(C)CCC1C32OO4 (stereo not shown) — IC50 (A2780; cell growth or viability, CCK-8): 0.83 µM
CC(=O)N[C@H](C(=O)N[C@@H](CCCNC(=N)N)C(=O)N[C@@H](CCCCN)C(=O)N[C@@H](CCCNC(=N)N)C(=O)N[C@H](C(=O)N[C@@]1(C)CCCC=CCCC[C@@](C)(C(=O)N[C@@H](CCC(N)=O)C(=O)N[C@@H](CCC(=O)O)C(=O)N[C@@H](CCCNC(=N)N)C(=O)N[C@@H](CCC(=O)O)C(=O)N[C@@H](CC(C)C)C(=O)N[C@H](C(=O)N[C@@H](CCC(=O)O)C(N)=O)C(C)C)NC(=O)[C@H](CC(C)C)NC(=O)[C@H](CCCNC(=N)N)NC(=O)[C@H](CCCNC(=N)N)NC1=O)[C@@H](C)O)C(C)C — IC50 (A-431 (wild-type EGFR); cell viability; 18 h): > 50 µM
CC(C)C12OC1C1OC13C1(C)CCC4=C(COC4=O)C1CC1OC13C2OC(=O)CCCOC1OC(CO)C(O)C(O)C1O (stereo not shown) — IC50 (NCI-H1299; cell growth or viability, XTT; 47 h): 11.5 µM
CC(=O)N[C@H](C(=O)N[C@@H](CCCNC(=N)N)C(=O)N[C@@H](CCCCN)C(=O)N[C@@H](CCCNC(=N)N)C(=O)N[C@@]1(C)CCCC=CCCC[C@@](C)(C(=O)N[C@@H](CC(C)C)C(=O)N[C@@H](CCC(N)=O)C(=O)N[C@@H](CCC(=O)O)C(=O)N[C@@H](CCCNC(=N)N)C(=O)N[C@@H](CCC(=O)O)C(=O)N[C@@H](CC(C)C)C(=O)N[C@H](C(=O)N[C@@H](CCC(=O)O)C(N)=O)C(C)C)NC(=O)[C@H](CCCNC(=N)N)NC(=O)[C@H](CCCNC(=N)N)NC(=O)[C@H](CC(C)C)NC1=O)C(C)C — IC50 (A-431; cell viability; 18 h, serum-free): > 100 µM
C#CCCCC[C@H](C)C[C@@H](C)C(=O)N(C)[C@H](C(=O)N(C)[C@@H](Cc1ccccc1)C(=O)N1CCC[C@H]1C(=O)N1CCC[C@H]1C(C)=O)C(C)C — IC50 (HEK293; cell growth or viability, SRB): 5720 µM and 5700 µM and 5860 µM
CCCCCCCC(=O)NCCCC[C@H](NC(=O)CCCCCCC)C(=O)N[C@@H](CCCCNC(=O)CCCCCCC)C(=O)NCC(=O)NCC(=O)NCC(=O)N[C@@H](CS)C(=O)N[C@@H](CCCNC(=N)N)C(=O)N[C@@H](CCCCN)C(=O)N1CCC[C@H]1C(=O)N[C@@H](CS)C(=O)N[C@@H](CCCNC(=N)N)C(=O)N[C@@H](CCCCN)C(=O)N1CCC[C@H]1C(=O)N[C@@H](CS)C(=O)N[C@@H](CCCNC(=N)N)C(=O)N[C@@H](CCCCN)C(=O)N1CCC[C@H]1C(=O)N[C@@H](CS)C(=O)N[C@@H](CCCNC(=N)N)C(=O)N[C@@H](CCCCN)C(=O)N1CCC[C@H]1C(N)=O — IC50 (HEK293; cell growth or viability, MTT; 24 h): 276 µM
CC(=O)N[C@H](C(=O)N[C@@H](CCCNC(=N)N)C(=O)N[C@@H](CCCCN)C(=O)N[C@@H](CCCNC(=N)N)C(=O)N[C@@]1(C)CCCC=CCCC[C@@](C)(C(=O)N[C@@H](CC(C)C)C(=O)N[C@@H](CCC(N)=O)C(=O)N[C@@H](CCC(=O)O)C(=O)N[C@@H](CCCNC(=N)N)C(=O)N[C@@H](CCC(=O)O)C(=O)N[C@@H](CC(C)C)C(=O)N[C@H](C(=O)N[C@@H](CCC(=O)O)C(N)=O)C(C)C)NC(=O)[C@H](CCCNC(=N)N)NC(=O)[C@H](CCCNC(=N)N)NC(=O)[C@H](CC(C)C)NC1=O)C(C)C — IC50 (A-431 (wild-type EGFR); cell viability; 18 h): > 100 µM
CCCCCCCC(=O)NCCCC[C@H](NC(=O)CCCCCCC)C(=O)N[C@@H](CCCCNC(=O)CCCCCCC)C(=O)NCC(=O)NCC(=O)NCC(=O)N[C@@H](CS)C(=O)N[C@@H](CCCNC(=N)N)C(=O)N[C@@H](CCCCN)C(=O)N1CCC[C@H]1C(N)=O — IC50 (HEK293; cell growth or viability, MTT; 24 h): 555 µM
CC(C)C[C@H](NC(=O)[C@H](Cc1ccccc1)NC(=O)[C@H](C)NC(=O)[C@@H](CS)NC(=O)CNC(=O)[C@H](N)CO)C(=O)N[C@@H](CO)C(=O)N[C@H](C(=O)N[C@@H](CCCCN)C(=O)N[C@@H](CCCCN)C(=O)N[C@@H](CCC(N)=O)C(=O)N[C@@H](Cc1ccccc1)C(=O)N[C@@H](CCC(=O)O)C(=O)N[C@@H](CCC(=O)O)C(=O)N[C@@H](CC(C)C)C(=O)N[C@H](C(=O)N[C@@H](CC(C)C)C(=O)NCC(=O)N[C@@H](CCC(=O)O)C(=O)N[C@@H](Cc1ccccc1)C(=O)N[C@@H](CC(C)C)C(=O)N[C@H](CCCCN)C(=O)N[C@H](CC(C)C)C(=O)N[C@H](CC(=O)O)C(=O)N[C@@H](CCCNC(=N)N)C(=O)N[C@H](CCCNC(=N)N)C(=O)N[C@@H](CCCNC(=N)N)C(=O)N[C@@H](CCCCN)C(=O)O)[C@@H](C)O)C(C)C — IC50 (A549 SMAC-expressing; cell death, annexin V/PI flow cytometry; 24 h, serum-free medium): 40 µM
CC(C)C12OC1C1OC13C1(C)CCC4=C(COC4=O)C1CC1OC13C2OC(=O)CCC(=O)OC1OC(CO)C(O)C(O)C1O (stereo not shown) — IC50 (LNCaP; cell growth or viability, XTT; 47 h): 0.56 µM
CCC1=C(C)C2=C(c3ccc(C(=O)NCCNC(=O)c4ccc(P(=NC(=O)c5ccccn5)(c5ccccc5)c5ccccc5)cc4)cc3)c3c(C)c(CC)c(C)n3[B-](F)(F)[N+]2=C1C — IC50 (IMR-90; cell growth or viability, MTT): > 250 µM
CSCC[C@H](N)C(=O)N[C@@H](C)C(=O)N[C@H](C(=O)N1CCC[C@H]1C(=O)N1CCC[C@H]1C(=O)N[C@H](C(=O)N[C@@H](Cc1ccc(O)cc1)C(=O)N[C@@H](C)C(=O)N[C@@H](CC(=O)O)C(=O)N[C@@H](CC(C)C)C(=O)NCC(=O)N[C@@H](CCCCN)C(=O)N[C@@H](CO)C(=O)N[C@@H](C)C(=O)N[C@@H](CCCNC(=N)N)C(=O)N[C@@H](CC(=O)O)C(=O)N[C@H](C(=O)N[C@@H](Cc1ccccc1)C(=O)N[C@H](C(=O)N[C@@H](CCCCN)C(=O)NCC(=O)N[C@@H](Cc1ccc(O)cc1)C(=O)NCC(=O)N[C@@H](Cc1ccccc1)C(=O)NCC(=O)N[C@@H](CC(C)C)C(=O)N[C@@H](CCCNC(=N)N)C(=O)N[C@@H](CCCCN)C(=O)N[C@@H](CCCCN)C(=O)N[C@@H](CCCNC(=N)N)C(=O)N[C@@H](CCCNC(=N)N)C(=O)N[C@@H](CCC(N)=O)C(=O)N[C@@H](CCCNC(=N)N)C(=O)N[C@@H](CCCNC(=N)N)C(=O)N[C@@H](CCCNC(=N)N)C(=O)NCC(=O)NCC(=O)O)[C@@H](C)O)C(C)C)[C@@H](C)O)C(C)C — IC50 (MEC1; cell growth or viability, flow cytometry; 90 min): > 20 µM
Cc1cc(Oc2nc(N3CC[C@@H](c4ccncc4)C3)ncc2F)[nH]n1 — IC50 (HEK293; cell proliferation; kidney cancer): 87.1 µM
CC[C@H](C)[C@H](NC(=O)[C@H](Cc1c[nH]cn1)NC(=O)[C@H](CCCNC(=N)N)NC(=O)[C@H](CCCNC(=N)N)NC(=O)[C@H](CCCNC(=N)N)NC(=O)CNC(=O)[C@H](CCCNC(=N)N)NC(=O)[C@H](CCCNC(=N)N)NC(=O)[C@H](CCCNC(=N)N)NC(=O)[C@H](CCC(N)=O)NC(=O)[C@H](CCCNC(=N)N)NC(=O)[C@H](CCCNC(=N)N)NC(=O)[C@H](CCCCN)NC(=O)[C@H](CCCCN)NC(=O)[C@H](CCCNC(=N)N)NC(C)=O)C(=O)N[C@H](C(=O)N[C@@H](CCCNC(=N)N)C(=O)N[C@@H](CCCCN)C(=O)N[C@@H](CCCNC(=N)N)C(=O)N[C@H](C(=O)N[C@@H](CC(C)C)C(=O)N[C@@H](CCCNC(=N)N)C(=O)N[C@@H](CCCNC(=N)N)C(=O)N[C@@H](CC(C)C)C(=O)N[C@@H](CC(C)C)C(=O)N[C@@H](CCC(N)=O)C(=O)N[C@@H](CCC(=O)O)C(=O)N[C@@H](CCCNC(=N)N)C(N)=O)[C@@H](C)O)C(C)C — IC50 (A-431; cell viability; 18 h, serum-free): 28.6 µM
Cc1cc(Nc2nc(C[C@@]3(C(=O)O)CCN(Cc4cccc(Cl)c4F)[C@H](C)C3)cc(C)c2F)[nH]n1 — IC50 (SH-SY5Y; cell growth or viability, ATP luminescence; 5 days): 0.0081 µM
O=C1C(Cl)=C(Cl)C(=O)c2ccccc21 — IC50 (MOLT-3; cell growth or viability, XTT): 3.61 µM
Cc1sc2c(c1C)C(c1ccc(NC(=O)c3cc([N+](=O)[O-])ccc3F)cc1)=N[C@@H](CC(=O)OC(C)(C)C)c1nnc(C)n1-2 — IC50 (Jurkat; cell growth or viability, ATP luminescence; 72 h): 7e-06 µM
CC[C@H](C)[C@H](NC(=O)[C@H](CCCCN)NC(=O)[C@@H](NC(=O)[C@H](CCC(N)=O)NC(=O)[C@H](CCCNC(=N)N)NC(=O)[C@H](CC(C)C)NC(=O)CNC(=O)[C@H](Cc1ccccc1)NC(=O)CNC(=O)[C@H](Cc1ccc(O)cc1)NC(=O)CNC(=O)[C@H](CCCCN)NC(=O)[C@@H](NC(=O)[C@H](Cc1ccccc1)NC(=O)[C@@H](NC(=O)[C@H](CC(=O)O)NC(=O)[C@H](CCCNC(=N)N)NC(=O)[C@H](C)NC(=O)[C@H](CO)NC(=O)[C@H](CCCCN)NC(=O)CNC(=O)[C@H](CC(C)C)NC(=O)[C@H](CC(=O)O)NC(=O)[C@H](C)NC(=O)[C@H](Cc1ccc(O)cc1)NC(=O)[C@@H](NC(=O)[C@@H]1CCCN1)[C@@H](C)O)C(C)C)[C@@H](C)O)[C@@H](C)CC)C(=O)N[C@@H](Cc1c[nH]c2ccccc12)C(=O)N[C@@H](Cc1ccccc1)C(=O)N[C@@H](CCC(N)=O)C(=O)N[C@@H](CC(N)=O)C(=O)N[C@@H](CCCNC(=N)N)C(=O)N[C@@H](CCCNC(=N)N)C(=O)N[C@@H](CCSC)C(=O)N[C@@H](CCCCN)C(=O)N[C@@H](Cc1c[nH]c2ccccc12)C(=O)N[C@@H](CCCCN)C(=O)N[C@@H](CCCCN)C(=O)O — IC50 (MEC1; cell growth or viability, flow cytometry; 90 min): 4.2 µM
Oc1cccc2cccnc12.Oc1cccc2cccnc12.[Cl][Fe]([Cl])[Cl] — IC50 (A2780; viability, MTT; 48 h): 3.3 ± 0.3 µM

For quick reference, copied from above:
CC[C@H](C)[C@H](NC(=O)[C@H](Cc1c[nH]cn1)NC(=O)[C@H](CCCNC(=N)N)NC(=O)[C@H](CCCNC(=N)N)NC(=O)[C@H](CCCNC(=N)N)NC(=O)CNC(=O)[C@H](CCCNC(=N)N)NC(=O)[C@H](CCCNC(=N)N)NC(=O)[C@H](CCCNC(=N)N)NC(=O)[C@H](CCC(N)=O)NC(=O)[C@H](CCCNC(=N)N)NC(=O)[C@H](CCCNC(=N)N)NC(=O)[C@H](CCCCN)NC(=O)[C@H](CCCCN)NC(=O)[C@H](CCCNC(=N)N)NC(C)=O)C(=O)N[C@H](C(=O)N[C@@H](CCCNC(=N)N)C(=O)N[C@@H](CCCCN)C(=O)N[C@@H](CCCNC(=N)N)C(=O)N[C@H](C(=O)N[C@@H](CC(C)C)C(=O)N[C@@H](CCCNC(=N)N)C(=O)N[C@@H](CCCNC(=N)N)C(=O)N[C@@H](CC(C)C)C(=O)N[C@@H](CC(C)C)C(=O)N[C@@H](CCC(N)=O)C(=O)N[C@@H](CCC(=O)O)C(=O)N[C@@H](CCCNC(=N)N)C(N)=O)[C@@H](C)O)C(C)C — IC50 (A-431; cell viability; 18 h, serum-free): 28.6 µM
Cc1cc(Nc2nc(C[C@@]3(C(=O)O)CCN(Cc4cccc(Cl)c4F)[C@H](C)C3)cc(C)c2F)[nH]n1 — IC50 (SH-SY5Y; cell growth or viability, ATP luminescence; 5 days): 0.0081 µM
